Assay results pooled from the literature.
Compare with care: the assays were run in different laboratories. Several values in a cell are separate wells, animals, samples, runs or records. ± marks the error that the study gave. ≈ marks a conversion by molar mass, not a printed value.

N#CC(C#N)=NNc1cccc(Cl)c1  MIC (Escherichia coli; tetracycline-resistant (pBR322)): 56 µM (≈ 11.5 µg/mL)
CC(Nc1nc(N2CCNCC2C)nc2ccccc12)c1ccccc1 (centres unmarked)  efficacy (SARS-CoV-2; cytopathic effect; USA_WA1/2020; retest 8-point): 75.6%
Cc1cc(/C=C/C#N)cc(C)c1-n1cnc2cnc(Nc3ccc4cc(C#N)ccc4c3)nc21  EC50 (HIV-1; viral replication, single-round infection; RT mutant G190S): ≤ 0.0021 µM
NC(=O)CCNC(=O)c1ccccc1S  EC50 (HIV-1; viral replication; human PBMC, subtype E 93TH051, CCR5-tropic clinical isolate): 5.25 ± 2.78 µM
Cc1cc(/C=C/C#N)cc(C)c1Nc1ccnc(Nc2ccc(C#N)cc2)n1  EC50 (HIV-1; viral replication, single-round infection; RT mutant K101P/V179I): 0.0935 ± 0.0121 µM
Nc1ccn([C@H]2C[C@H](O)[C@](CO)(CF)O2)c(=O)n1  IC50 (HIV-1 T215F; MT4): 0.0243 ± 0.0155 µM
CNC(=O)[C@@H](NC(=O)[C@H](CC(C)C)[C@H](O)C(=O)NO)C(C)(C)C  remaining fibrinogen Bβ chain (human fibrinogen; SDS-PAGE; Daboia russelii; concentration not given, unit not given, with: KA venom; relative to: untreated fibrinogen): 0.632
CCCC(=O)OCSc1ccccc1C(=O)NCCC(N)=O  EC50 (HIV-1; viral replication; human PBMC, group O BCF02, CCR5-tropic clinical isolate): 9.98 ± 8.37 µM
O=C1Nc2ccc(Cl)cc2[C@@](C#CC2CC2)(C(F)(F)F)O1  EC50 (HIV-1; viral replication, single-round infection; RT mutant K101E/M184V): 0.0015 ± 0.0002 µM
COc1ccccc1CC(=O)Nc1ccccc1Sc1ccc([N+](=O)[O-])cc1  IC50 (HIV-1; viral replication, item: RT activity; H9 expressing A3G, LAI, X4-tropic wild type; day 7): 5.2 µM
CNc1nc(N)nc2c1ncn2[C@H]1C[C@H](O)[C@](CO)(CF)O1  IC50 (HIV-1 T215F; MTT; MT4): 0.189 ± 0.0685 µM
CCc1c(C(=O)C(N)=O)c2c(OCC(=O)O)cccc2n1Cc1ccccc1  time to death (Southeast population, mouse; 60 µg/mouse, preincubated with venom): 0.13 h and 0.05 h and 0.08 h
Nc1ncnc2c([C@@H]3N[C@H](CO)[C@@H](O)[C@H]3O)c[nH]c12  inhibition (Zaire ebolavirus; viral replication; HeLa, Kikwit; 3.1 µM): 0%
C[C@]1(CO)O[C@@H](n2cnc3c(=O)[nH]c(N)nc32)C[C@@H]1O  IC50 (HIV-1 M184V; MT4): > 1 µM
Cc1cc(/C=C/C#N)cc(C)c1-n1cnc2cnc(Nc3ccc(/C=C/C#N)cc3)nc21  EC50 (HIV-1; viral replication, single-round infection; RT mutant K101E/M184V): < 0.005 µM
CNc1nc(N)ncc1-c1cn([C@@H]2O[C@H](CO[P@@](=O)(N[C@@H](C)C(=O)OC(C)C)Oc3ccccc3)[C@@H](O)[C@@]2(C)F)cn1  antiviral activity (human cytomegalovirus; concentration not given): inactive
Cc1cn([C@H]2C[C@H](N=[N+]=[N-])[C@@H](CO)O2)c(=O)[nH]c1=O  EC50 (HIV-1; viral replication; human PBMC, subtype F 93BR029, CCR5-tropic clinical isolate): 0.00707 ± 0.00395 µM
C#C[C@]1(CO)O[C@@H](n2cnc3c(=O)[nH]c(N)nc32)C[C@@H]1O  IC50 (HIV-1 K65R; MTT; MT4): 0.0001 ± 6e-05 µM
CC[C@H](C)[C@H](NC(=O)[C@H](CC(C)C)NC(=O)[C@H](Cc1c[nH]c2ccccc12)NC(=O)[C@H](CCC(N)=O)NC(=O)[C@@H](NC(=O)[C@H](Cc1ccccc1)NC(=O)[C@H](C)NC(=O)[C@H](CCCCNC(=O)COCCOCCNC(=O)COCCOCCNC(=O)CC[C@H](NC(=O)CCCCCCCCCCCCCCCCCCC(=O)O)C(=O)O)NC(=O)[C@H](CCC(N)=O)NC(=O)[C@H](C)NC(=O)[C@@H](NC(=O)[C@H](CCCCN)NC(=O)[C@H](CC(=O)O)NC(=O)[C@H](CC(C)C)NC(=O)C(C)(C)NC(=O)[C@@H](NC(=O)[C@H](CO)NC(=O)[C@H](Cc1ccc(O)cc1)NC(=O)[C@H](CC(=O)O)NC(=O)[C@H](CO)NC(=O)[C@@H](NC(=O)[C@H](Cc1ccccc1)NC(=O)[C@@H](NC(=O)CNC(=O)[C@H](CCC(=O)O)NC(=O)C(C)(C)NC(=O)[C@@H](N)Cc1ccc(O)cc1)[C@@H](C)O)[C@@H](C)O)[C@@H](C)CC)[C@@H](C)CC)C(C)C)C(=O)N[C@@H](C)C(=O)NCC(=O)NCC(=O)N1CCC[C@H]1C(=O)N[C@@H](CO)C(=O)N[C@@H](CO)C(=O)NCC(=O)N[C@@H](C)C(=O)N1CCC[C@H]1C(=O)N1CCC[C@H]1C(=O)N1CCC[C@H]1C(=O)N[C@@H](CO)C(N)=O  total ALT (patients with type 2 diabetes, serum; 5/5/10/10 mg escalating, day 29): 33 ± 24.4 U/L
Cn1cnc(Cn2c(=O)[nH]/c(=N\c3cc4cn(C)nc4cc3Cl)n(Cc3cc(F)c(F)cc3F)c2=O)n1  terminal half-life (human, mild renal impairment, plasma; oral, 375 mg single dose): 52.1 h
CCCN1CCN(CCCNC(=O)c2cc3c(Cl)nc4ccccc4c3s2)CC1  efficacy (SARS-CoV-2; cytopathic effect, cell-based CPE; USA_WA1/2020; round 2, 5-point dilution): 82%
C#C[C@]1(CO)O[C@@H](n2cnc3c(N)nc(F)nc32)C[C@@H]1O  IC50 (HIV-1 T215F; MT4): 0.0023 ± 1e-05 µM
Cn1c(Cn2ccc(C(F)(F)F)c(Oc3cc(Cl)cc(C#N)c3)c2=O)n[nH]c1=O  EC50 (HIV-1; viral replication, single-round infection; RT mutant M184V): 0.0007 ± 1e-05 µM
